Assay results pooled from the literature.
Compare with care: the assays were run in different laboratories. ± marks the error that the study gave.
rep main protease: Replicase polyprotein 1ab, main protease (rep, Severe acute respiratory syndrome coronavirus 2, UniProt P0DTD1)

| SMILES | target or system | test | test system | setting | scale | quantity | value |
| --- | --- | --- | --- | --- | --- | --- | --- |
| COc1ccc2c(Sc3ccccc3)c(C(=O)NCCCN3CCCCC3)[nH]c2c1 | SARS-CoV-2 | cytopathic effect | USA_WA1/2020 | retest, 8-point, duplicates | – | efficacy | 73.4% |
| CC(C)(C)[C@H](NC(=O)C(F)(F)F)C(=O)N1C[C@H]2[C@@H]([C@H]1C(=O)N[C@H](C#N)C[C@@H]1CCNC1=O)C2(C)C | SARS-CoV-2 | viral replication, infectious virus | Vero E6 | 0.0039 µM | – | inhibition | 3.28% |
| CC(C)(C)N1CCC(c2ccccc2)(c2ccccc2)CC1 | SARS-CoV-2 | cytopathic effect | USA_WA1/2020 | retest, 8-point, duplicates | – | efficacy | 20.2% |
| Cc1cc(-c2ccc(/N=N/c3ccc4c(S(=O)(=O)O)cc(S(=O)(=O)O)c(N)c4c3O)c(C)c2)ccc1/N=N/c1ccc2c(S(=O)(=O)O)cc(S(=O)(=O)O)c(N)c2c1O | SARS-CoV-2 | viral replication, GFP plate reader screen | – | cell-based | – | EC50 | > 100 µM |
| CCCCN(C)CCNC(=O)c1cc(-c2ccc(Cl)s2)nc2ccccc12 | SARS-CoV-2 | cytopathic effect, cell-based CPE | USA_WA1/2020 | – | – | AC50 | 7.94 µM |
| CC(C)=CCc1c(O)ccc(C(=O)/C=C/c2ccc(O)cc2)c1O | SARS-CoV-2 | viral replication | Vero E6 | 6.25 µM | reference: mean of replicates | CPE inhibition | 0% |
| Nc1ncnc2c([C@@H]3N[C@H](CO)[C@@H](O)[C@H]3O)c[nH]c12 | Junin virus | viral replication | HeLa, Romero | 1.6 µM | – | inhibition | 0% |
| CN1CCC(=C2c3ccccc3Sc3ccccc32)CC1 | SARS-CoV-2 | viral replication, high-content imaging screen | – | cell-based | – | EC50 | > 100 µM |
| CC[C@H](C)[C@H](NC(=O)[C@H]([C@@H](C)CC)N(C)C(C)=O)C(=O)N[C@H](C(=O)N[C@@H](CC(C)C)C(=O)[C@@]1(C)CO1)[C@@H](C)O | rep main protease | reporter gene (Gaussia luciferase), inhibitor | – | 20 µM | – | inhibition | -4.4% |
| CN(C)CCON=C1c2ccccc2CCc2ccccc21 | SARS-CoV-2 | viral replication, GFP plate reader screen | – | cell-based | – | EC50 | 14.1 µM |
| O=C(/C=C/c1ccc(O)c(O)c1/C=C/c1ccc(O)c(O)c1)O[C@H](Cc1ccc(O)c(O)c1)C(=O)O | SARS-CoV-2 | viral replication | Vero E6 | 6.25 µM | – | CPE inhibition | 0% |
| Cn1cnc(Cn2c(=O)[nH]/c(=N\c3cc4cn(C)nc4cc3Cl)n(Cc3cc(F)c(F)cc3F)c2=O)n1 | – | – | human, severe renal impairment | oral, 375 mg | – | anaemia TEAE, Severe severity | 0% |
| CCOC(=O)Nc1ccc(NCc2ccc(F)cc2)nc1N | SARS-CoV-2 | viral replication, GFP plate reader screen | – | cell-based | – | EC50 | > 100 µM |
| O=[N+]([O-])c1ccc(S(=O)(=O)N2CCN(c3ccnc4cc(Cl)ccc34)CC2)c([N+](=O)[O-])c1 | rep main protease | viral replication, Gluc reporter | SARS-CoV-2 | 20 µM | – | inhibition | -3.77% |
| CC[C@H](C)[C@H](NC(=O)[C@H](CC(C)C)NC(=O)[C@H](Cc1c[nH]c2ccccc12)NC(=O)[C@H](CCC(N)=O)NC(=O)[C@@H](NC(=O)[C@H](Cc1ccccc1)NC(=O)[C@H](C)NC(=O)[C@H](CCCCNC(=O)COCCOCCNC(=O)COCCOCCNC(=O)CC[C@H](NC(=O)CCCCCCCCCCCCCCCCCCC(=O)O)C(=O)O)NC(=O)[C@H](CCC(N)=O)NC(=O)[C@H](C)NC(=O)[C@@H](NC(=O)[C@H](CCCCN)NC(=O)[C@H](CC(=O)O)NC(=O)[C@H](CC(C)C)NC(=O)C(C)(C)NC(=O)[C@@H](NC(=O)[C@H](CO)NC(=O)[C@H](Cc1ccc(O)cc1)NC(=O)[C@H](CC(=O)O)NC(=O)[C@H](CO)NC(=O)[C@@H](NC(=O)[C@H](Cc1ccccc1)NC(=O)[C@@H](NC(=O)CNC(=O)[C@H](CCC(=O)O)NC(=O)C(C)(C)NC(=O)[C@@H](N)Cc1ccc(O)cc1)[C@@H](C)O)[C@@H](C)O)[C@@H](C)CC)[C@@H](C)CC)C(C)C)C(=O)N[C@@H](C)C(=O)NCC(=O)NCC(=O)N1CCC[C@H]1C(=O)N[C@@H](CO)C(=O)N[C@@H](CO)C(=O)NCC(=O)N[C@@H](C)C(=O)N1CCC[C@H]1C(=O)N1CCC[C@H]1C(=O)N1CCC[C@H]1C(=O)N[C@@H](CO)C(N)=O | – | – | healthy subjects, single ascending dose | 1.0 mg, baseline | – | serum amylase | 67.2 ± 31.7 U/L |
| O=C(O[C@@H]1Cc2c(O)cc(O)cc2O[C@@H]1c1cc(O)c(O)c(O)c1)c1cc(O)c(O)c(O)c1 | SARS-CoV-2 | cytopathic effect | Vero E6 | 6.25 µM, replicate run | – | mean inhibition | 0% |
| COc1ccc2c(Sc3ccc(Cl)cc3)c(C(=O)NCCCN3CCCCC3)[nH]c2c1 | SARS-CoV-2 | cytopathic effect, cell-based CPE | USA_WA1/2020 | – | – | AC50 | 14.1 µM |
